Experimental data of several laboratories.
Several values in a cell are separate wells, animals, samples, runs or records. Numbers after ± are the reported error.
Oprm1: Mu-type opioid receptor (Oprm1, Rattus norvegicus, UniProt P33535)
UniProt P33535, sequence (whole entry, looked up): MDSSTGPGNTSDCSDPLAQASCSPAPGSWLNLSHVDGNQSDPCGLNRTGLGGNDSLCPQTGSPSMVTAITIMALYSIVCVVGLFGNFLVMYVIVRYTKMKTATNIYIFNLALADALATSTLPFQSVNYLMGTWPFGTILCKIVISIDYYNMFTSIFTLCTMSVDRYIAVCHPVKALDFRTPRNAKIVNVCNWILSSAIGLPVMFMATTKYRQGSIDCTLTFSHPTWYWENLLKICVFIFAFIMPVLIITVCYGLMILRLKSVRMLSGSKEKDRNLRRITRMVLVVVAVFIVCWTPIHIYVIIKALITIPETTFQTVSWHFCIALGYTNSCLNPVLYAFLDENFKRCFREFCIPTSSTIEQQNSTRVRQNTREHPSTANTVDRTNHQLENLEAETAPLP
sdiA: Regulatory protein SdiA (sdiA, Escherichia coli, UniProt P07026)
UniProt P07026, sequence (whole entry, looked up): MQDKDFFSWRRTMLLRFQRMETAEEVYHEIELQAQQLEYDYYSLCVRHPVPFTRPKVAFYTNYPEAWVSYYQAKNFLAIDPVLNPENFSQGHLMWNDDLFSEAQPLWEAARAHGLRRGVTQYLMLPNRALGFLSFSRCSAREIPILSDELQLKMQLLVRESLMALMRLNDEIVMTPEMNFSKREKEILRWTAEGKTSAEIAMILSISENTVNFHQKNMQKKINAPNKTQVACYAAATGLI
lasR: Transcriptional activator protein LasR (lasR, Pseudomonas aeruginosa, UniProt P25084)
Uncharacterized hydrolase SAUSA300_2518: Uncharacterized hydrolase SAUSA300_2518 (Staphylococcus aureus, UniProt Q2FDS6)
UniProt Q91V12, sequence (whole entry, looked up): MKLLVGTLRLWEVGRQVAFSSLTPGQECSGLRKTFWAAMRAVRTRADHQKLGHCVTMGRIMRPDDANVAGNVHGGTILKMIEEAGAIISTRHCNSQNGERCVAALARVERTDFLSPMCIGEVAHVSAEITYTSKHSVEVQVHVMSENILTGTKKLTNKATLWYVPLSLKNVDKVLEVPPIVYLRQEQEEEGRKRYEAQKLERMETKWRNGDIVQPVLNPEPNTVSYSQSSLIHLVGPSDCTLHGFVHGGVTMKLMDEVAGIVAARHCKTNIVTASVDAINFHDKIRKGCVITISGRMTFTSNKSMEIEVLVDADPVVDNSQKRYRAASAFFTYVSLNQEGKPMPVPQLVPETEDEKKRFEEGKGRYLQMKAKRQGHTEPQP
UniProt A5GZW8, sequence (whole entry, looked up): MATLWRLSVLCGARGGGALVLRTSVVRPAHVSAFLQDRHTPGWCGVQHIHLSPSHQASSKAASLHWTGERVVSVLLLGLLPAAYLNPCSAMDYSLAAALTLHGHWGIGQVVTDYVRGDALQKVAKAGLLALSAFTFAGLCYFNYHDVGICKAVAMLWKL
UniProt D0VWV4, sequence (whole entry, looked up): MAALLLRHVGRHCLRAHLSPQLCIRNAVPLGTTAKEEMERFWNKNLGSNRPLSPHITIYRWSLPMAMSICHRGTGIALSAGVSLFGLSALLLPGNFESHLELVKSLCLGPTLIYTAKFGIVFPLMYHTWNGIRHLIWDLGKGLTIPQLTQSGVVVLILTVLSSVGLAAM
UniProt Q00987, sequence (whole entry, looked up): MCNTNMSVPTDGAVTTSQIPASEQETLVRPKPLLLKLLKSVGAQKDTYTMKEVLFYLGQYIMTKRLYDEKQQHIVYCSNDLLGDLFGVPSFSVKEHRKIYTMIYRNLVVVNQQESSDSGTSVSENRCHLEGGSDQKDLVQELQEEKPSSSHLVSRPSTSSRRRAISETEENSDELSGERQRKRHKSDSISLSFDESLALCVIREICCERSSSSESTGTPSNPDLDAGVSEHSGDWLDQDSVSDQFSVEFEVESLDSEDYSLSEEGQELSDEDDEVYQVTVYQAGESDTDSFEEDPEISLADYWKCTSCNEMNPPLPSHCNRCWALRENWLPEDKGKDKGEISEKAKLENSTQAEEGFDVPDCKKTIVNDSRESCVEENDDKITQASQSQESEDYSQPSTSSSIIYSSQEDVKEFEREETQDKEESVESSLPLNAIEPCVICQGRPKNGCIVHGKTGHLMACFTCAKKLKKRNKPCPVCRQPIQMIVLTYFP
UniProt Q007T0, sequence (whole entry, looked up): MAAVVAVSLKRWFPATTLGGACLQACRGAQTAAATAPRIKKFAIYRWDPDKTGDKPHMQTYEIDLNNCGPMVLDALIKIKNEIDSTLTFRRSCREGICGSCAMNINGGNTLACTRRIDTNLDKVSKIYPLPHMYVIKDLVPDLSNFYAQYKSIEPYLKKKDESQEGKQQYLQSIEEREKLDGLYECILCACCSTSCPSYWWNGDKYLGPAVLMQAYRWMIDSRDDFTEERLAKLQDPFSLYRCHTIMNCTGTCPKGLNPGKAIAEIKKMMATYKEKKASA
UniProt Q9Y2J8, sequence (whole entry, looked up): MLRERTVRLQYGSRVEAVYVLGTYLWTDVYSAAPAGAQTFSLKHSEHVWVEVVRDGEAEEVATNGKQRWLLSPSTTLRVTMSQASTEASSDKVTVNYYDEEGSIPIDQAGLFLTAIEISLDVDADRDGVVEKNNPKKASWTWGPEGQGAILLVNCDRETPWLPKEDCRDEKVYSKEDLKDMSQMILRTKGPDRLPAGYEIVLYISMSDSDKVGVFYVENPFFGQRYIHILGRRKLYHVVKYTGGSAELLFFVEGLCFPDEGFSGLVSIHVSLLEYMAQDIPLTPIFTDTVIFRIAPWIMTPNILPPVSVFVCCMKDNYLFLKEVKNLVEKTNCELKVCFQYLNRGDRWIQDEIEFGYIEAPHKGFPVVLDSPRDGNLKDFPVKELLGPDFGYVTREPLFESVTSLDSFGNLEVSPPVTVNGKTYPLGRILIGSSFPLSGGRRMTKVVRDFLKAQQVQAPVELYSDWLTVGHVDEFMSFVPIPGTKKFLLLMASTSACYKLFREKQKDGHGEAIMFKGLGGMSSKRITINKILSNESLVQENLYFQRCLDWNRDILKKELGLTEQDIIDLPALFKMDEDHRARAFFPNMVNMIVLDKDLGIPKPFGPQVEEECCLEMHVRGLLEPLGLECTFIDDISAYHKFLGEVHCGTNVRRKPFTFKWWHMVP
UniProt P05771, sequence (whole entry, looked up): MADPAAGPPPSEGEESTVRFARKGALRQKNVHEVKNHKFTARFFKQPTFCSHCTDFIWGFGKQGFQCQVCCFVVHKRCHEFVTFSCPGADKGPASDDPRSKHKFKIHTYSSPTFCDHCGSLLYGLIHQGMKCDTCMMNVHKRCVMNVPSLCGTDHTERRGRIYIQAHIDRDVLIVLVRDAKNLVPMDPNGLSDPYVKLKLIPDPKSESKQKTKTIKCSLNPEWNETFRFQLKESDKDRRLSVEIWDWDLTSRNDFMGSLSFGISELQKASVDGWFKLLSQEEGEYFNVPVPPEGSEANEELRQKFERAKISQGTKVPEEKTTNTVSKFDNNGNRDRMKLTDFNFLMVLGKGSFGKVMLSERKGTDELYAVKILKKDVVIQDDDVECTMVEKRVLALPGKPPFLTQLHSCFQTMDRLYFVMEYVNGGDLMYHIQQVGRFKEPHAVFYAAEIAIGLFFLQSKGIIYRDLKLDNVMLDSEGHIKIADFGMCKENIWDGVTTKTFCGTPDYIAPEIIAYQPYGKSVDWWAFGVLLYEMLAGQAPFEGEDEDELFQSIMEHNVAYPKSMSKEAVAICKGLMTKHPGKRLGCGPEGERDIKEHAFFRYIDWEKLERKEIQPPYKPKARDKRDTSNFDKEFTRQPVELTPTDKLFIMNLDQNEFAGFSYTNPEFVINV
UniProt Q14145, sequence (whole entry, looked up): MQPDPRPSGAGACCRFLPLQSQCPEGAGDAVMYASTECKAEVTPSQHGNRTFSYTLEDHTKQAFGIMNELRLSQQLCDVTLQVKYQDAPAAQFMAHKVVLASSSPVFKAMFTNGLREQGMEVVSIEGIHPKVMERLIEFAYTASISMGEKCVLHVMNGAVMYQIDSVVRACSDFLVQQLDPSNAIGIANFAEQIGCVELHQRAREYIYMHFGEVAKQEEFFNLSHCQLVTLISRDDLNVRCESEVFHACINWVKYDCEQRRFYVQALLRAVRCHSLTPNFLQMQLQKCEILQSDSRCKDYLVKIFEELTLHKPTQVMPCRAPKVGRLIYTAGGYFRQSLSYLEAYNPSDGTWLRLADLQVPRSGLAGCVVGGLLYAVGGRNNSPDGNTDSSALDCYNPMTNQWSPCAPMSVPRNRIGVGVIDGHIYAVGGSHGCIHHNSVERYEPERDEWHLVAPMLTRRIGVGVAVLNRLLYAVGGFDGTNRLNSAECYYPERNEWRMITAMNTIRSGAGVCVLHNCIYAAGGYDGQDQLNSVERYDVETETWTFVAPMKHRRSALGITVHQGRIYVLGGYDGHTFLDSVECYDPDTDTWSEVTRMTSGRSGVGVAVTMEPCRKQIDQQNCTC
UniProt P21802, sequence (whole entry, looked up): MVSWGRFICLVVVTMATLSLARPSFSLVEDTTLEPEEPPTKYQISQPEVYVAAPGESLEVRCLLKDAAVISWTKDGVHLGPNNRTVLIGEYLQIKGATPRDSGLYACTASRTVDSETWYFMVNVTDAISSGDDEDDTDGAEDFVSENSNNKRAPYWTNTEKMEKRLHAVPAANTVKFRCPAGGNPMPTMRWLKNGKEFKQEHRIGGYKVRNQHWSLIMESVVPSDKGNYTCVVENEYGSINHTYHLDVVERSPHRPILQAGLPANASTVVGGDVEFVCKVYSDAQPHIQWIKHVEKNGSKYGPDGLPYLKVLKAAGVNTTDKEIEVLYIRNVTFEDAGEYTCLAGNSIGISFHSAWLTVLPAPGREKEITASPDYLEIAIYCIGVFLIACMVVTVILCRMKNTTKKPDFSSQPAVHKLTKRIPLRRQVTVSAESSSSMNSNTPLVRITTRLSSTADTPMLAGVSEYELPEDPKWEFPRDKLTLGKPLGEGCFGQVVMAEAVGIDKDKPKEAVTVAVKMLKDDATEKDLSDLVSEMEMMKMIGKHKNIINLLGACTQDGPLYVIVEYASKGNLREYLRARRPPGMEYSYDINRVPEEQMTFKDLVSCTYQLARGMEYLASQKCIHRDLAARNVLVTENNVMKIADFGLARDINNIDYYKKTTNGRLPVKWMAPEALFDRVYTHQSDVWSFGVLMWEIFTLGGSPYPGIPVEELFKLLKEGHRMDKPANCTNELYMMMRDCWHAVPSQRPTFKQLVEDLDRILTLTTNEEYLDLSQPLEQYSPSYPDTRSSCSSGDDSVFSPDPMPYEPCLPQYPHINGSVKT

CC(C)C[C@@H]1NC(=O)[C@H](C(C)C)NC(=O)[C@H](CCC(=O)O)NC(=O)CNC(=O)[C@H]([C@@H](C)O)NC(=O)[C@H](CCC(=O)O)NC(=O)[C@H](CCC(=O)O)NC(=O)[C@H](CC(=O)O)NC(=O)[C@H](C(C)C)NC(=O)[C@H]([C@@H](C)O)NC(=O)CNC(=O)[C@H](CC(=O)O)NC(=O)[C@@H]2CCCN2C1=O  fluorescence polarization (Kelch-like ECH-associated protein 1 (KEAP1, Homo sapiens, UniProt Q14145); Keap1-Nrf2 binding, inhibitor, competitive FP; 0.0061 µM, 30 min, together with: Nrf2 peptide probe; lower = stronger inhibition): 1.13 a.u. and 1.06 a.u.
CCCC[C@H]1CNCCN1C[C@@H]1CCCN1C[C@H](CC1CCCCC1)N1CCN(CCCC2CCCC2)[C@H]([C@@H](C)O)C1  remaining binding (Oprm1; radioligand binding; rat brain membranes; 500 nM, pH 7.5, 25 °C, together with: 0.87 nM [3H]DAMGO): 105 ± 10.5%
COc1ccc(CC(=O)N[C@H]2CCSC2=O)cc1  Emax (sdiA): 109%
[CH3][Ti+2][O]C(=O)c1ccc([S][Au][PH](c2ccccc2)(c2ccccc2)c2ccccc2)cc1.c1cc[cH-]c1.c1cc[cH-]c1  remaining activity (Protein kinase C beta type, isoform beta-II (PRKCB, Homo sapiens, UniProt P05771); kinase activity; 1 µM, together with: ATP 10 µM): 101% and 97.7%
Cc1cc(C)cc(COc2cc3c(cc2OCc2cc(C)cc(C)c2)C2CC(O)(Cc4cn(CCOCCOCCOCCOc5cccc6c5C(=O)N(C5CCC(=O)NC5=O)C6=O)nn4)CC(C)N2CC3)c1 (racemic)  degradation (Rab GDP dissociation inhibitor beta (Homo sapiens, UniProt P50395); degrader, Western blot; PC-3; 2 µM, 24 h): 3%
O=C1NC(=O)c2c1c1cc(F)c[n+]3c1c1c2c2cc(O)ccc2[n]1[Ru-4]312([N]=C=S)[S+]3CC[S+]1CC[S+]2CC3 (stereo not shown)  remaining activity (Platelet-derived growth factor receptor alpha (PDGFRA, Homo sapiens, UniProt P16234, D842V); enzyme activity; 100 nM, human enzyme, together with: 10 µM ATP; relative to: untreated): 7%
CCCCCCC(=O)N[C@H]1CCOC1=O  agonist activity (lasR; reporter gene, agonist; Pseudomonas aeruginosa PAO-JP2; 100 µM, plasI-LVAgfp reporter; relative to: OdDHL at same concentration): -2%
C#CCCCCOc1ccc2c(c1)CCCN2C(=O)CCl  reactivity ratio (Patatin-like phospholipase domain-containing protein 2 (Homo sapiens, UniProt Q96AD5); mass spectrometry profiling, measured: PNPLA2; H460 cell lysate; 100 µM over 10 µM, UniProt Q96AD5; relative to: high over low concentration): 1.6
COc1cccc2c1OC(C)(C)[C@@H]1C[C@H]3CN(C(=O)[C@@H](Cc4c[nH]c5ccccc45)NC(=O)OC(C)(C)C)CC[C@H]3O[C@@H]21  ΔTm (Tumor susceptibility gene 101 protein (Homo sapiens, UniProt Q99816); thermal stability; 800 µM): 16.8 °C
Cc1ccc(NC(=O)CCc2cccc(NC3=CC(=O)N(C4CCC(=O)NC4=O)C3=O)c2)cc1Cl (stereo not shown)  log2 fold change (CRBN/Zinc finger protein Helios (Homo sapiens, UniProt Q96SW2+Q9UKS7); degrader, quantitative proteomics, measured: protein abundance; Jurkat; 1 µM, 4 h; relative to: DMSO): -2.43
CS(C)(=O)=Nc1ccc(-c2ccc(-c3nc4cc(O[C@@H]5CO[C@H]6[C@@H]5OC[C@H]6O)[nH]c4cc3F)cc2)cc1  inhibition (Aurora kinase B (AURKB, Homo sapiens, UniProt Q96GD4); enzyme activity, inhibitor; 10 µM): -2%
C[C@@H](O)[C@@H]1CN([C@@H](CC2CCCCC2)CN2CCC[C@H]2CN2CCNC[C@@H]2CO)CCN1CCCC1CCCC1  remaining binding (Oprm1; radioligand binding; rat brain membranes; 500 nM, pH 7.5, 25 °C, together with: 0.87 nM [3H]DAMGO): 109 ± 6.97%
CN(C)CCCSC(=S)N1CCN(C(=O)/C=C/c2coc3ccccc3c2=O)CC1  MST response (Nucleoprotein (N, Tomato spotted wilt virus, UniProt P25999, R94A/Y184A); binding, microscale thermophoresis; 0.061 µM; dose series): 0.0696 a.u.
O=S(=O)(F)c1cccc2c1OCC2  remaining activity (Uncharacterized hydrolase SAUSA300_2518; enzyme activity, inhibitor, fluorogenic substrate; 1 µM): 116%
COc1ccccc1-c1n[nH]c2nc(N[C@H]3CC[C@H](NS(=O)(=O)CC(C)C)CC3)ncc12  remaining binding (cyclin 9 (Leishmania donovani, UniProt A0A2D1QVA3); bead pull-down competition; Leishmania donovani extract; 10 µM; relative to: vehicle): 6.33%
O=C(CCCOc1cccc(Br)c1)N[C@H]1CCSC1=O  agonist activity (lasR; reporter gene, agonist; Pseudomonas aeruginosa PAO-JP2; 100 µM, plasI-LVAgfp reporter; relative to: OdDHL at same concentration): 100%
N[C@H](C(=O)N1CCCC1)C1CCN(c2nccc3c(-c4ncc(Cl)cc4Cl)cccc23)CC1  kcat (Protein-arginine deiminase type-2 (PADI2, Homo sapiens, UniProt Q9Y2J8); enzyme activity; 0.03932 µM, high-affinity site, together with: Ca2+ 1.5 mM): 1.61 s⁻¹ and 1.62 s⁻¹
CCOC(=O)[C@@H]1Cc2c(cc([N+](=O)[O-])cc2[N+](=O)[O-])[C@H](O)[C@]12C(=O)Nc1ccc(Br)cc12  remaining binding (Mitogen-activated protein kinase kinase kinase 2 (MAP3K2, Homo sapiens, UniProt Q9Y2U5); binding, competition with immobilised ligand; 0.1 µM): 25%
O=C(Cc1ccc(F)c(C(F)(F)F)c1)N[C@H]1CCOC1=O  Emax (sdiA): 97.6%
CON(C(=O)c1cn(C)nc1C(F)F)C(C)Cc1c(Cl)cc(Cl)cc1Cl (stereo not shown)  reaction velocity (SDHD/SDHC/SDHB (Sus scrofa, UniProt A5GZW8+D0VWV4+Q007T0); enzyme activity, inhibitor, DCIP reduction; pig; 0.6 µM, together with: DCIP 20 µM): 0.00309 µM/s and 0.00344 µM/s and 0.00287 µM/s
C=CC(=O)NC[C@H](NC(=O)[C@H](CC1CCCCC1)NC(=O)[C@H](CCC(N)=O)NC(C)=O)C(=O)N[C@@H](CC(C)C)C(=O)N[C@@H](Cc1ccccc1)C(=O)O  ΔG (Beta sliding clamp (Escherichia coli, UniProt P0A988); binding, isothermal titration calorimetry; pH 7.4, 22 °C): -9.3 kcal/mol
CC(C)CC(O)(CC(C)C)c1cn(C(=O)N2CCCC2)nn1  SILAC activity ratio (Cytosolic acyl coenzyme A thioester hydrolase (Acot7, Mus musculus, UniProt Q91V12); probe labelling, inhibitor, competitive ABPP-SILAC, measured: Acot7; mouse T cells; concentration not given, 4 h, single peptide; relative to: treated over DMSO cells, lower = stronger inhibition): 1.1 and 1.28 and 1.06 and 1.15
CC(C)[C@H]1NC(=O)C[C@H]2/C=C/CCSSC[C@@H](NC1=O)C(=O)N[C@H](Cc1cccc3ccccc13)C(=O)NCC(=O)O2  inhibition (Receptor-type tyrosine-protein kinase FLT3 (FLT3, Homo sapiens, UniProt P36888); enzyme activity, inhibitor; 10 µM): 0.9%
C[C@H](NCc1ccc(-c2ccc(C(F)(F)F)cc2)cc1)C(N)=O  inhibition (Fibroblast growth factor receptor 2 (FGFR2, Homo sapiens, UniProt P21802); cell-free assay, competition with immobilised ligand; 1 µM): 10%
CCCC[C@H]1CNCCN1C[C@@H]1CCCN1C[C@@H](Cc1ccc2ccccc2c1)N1CCN(CCc2ccc(Cl)c(Cl)c2)[C@H](Cc2ccc(O)cc2)C1  remaining binding (Oprm1; radioligand binding; rat brain membranes; 500 nM, pH 7.5, 25 °C, together with: 0.87 nM [3H]DAMGO): 97.2 ± 3.2%
CCCO[C@H]1[C@H](O)[C@@H](N)[C@@H](O[C@H]2[C@H](O[C@@H]3O[C@H](CO)[C@@H](O[C@H]4O[C@@H](CN)[C@@H](O)[C@H](O)[C@H]4N)[C@H]3O)[C@@H](O)[C@H](N)C[C@@H]2N)O[C@@H]1CO  specific binding (Amine oxidase [flavin-containing] A (Maoa, Rattus norvegicus, UniProt P21396); radioligand binding; 10 µM, 1% DMSO): 2%
CCCCCC(=O)CC(=O)N[C@H]1CCOC1=O  potency ratio (lasR; reporter gene, antagonist; relative to: IC50 PAO-JP2 over E. coli JLD271): 71
Cc1ccc(OS(=O)(=O)F)c(C(=O)Nc2ccncc2)c1  remaining activity (Uncharacterized hydrolase SAUSA300_2518; enzyme activity, inhibitor, fluorogenic substrate; 0.05 µM): 94.1% and 89.9% and 87.3%
CC[C@H](C)[C@@H]1NC(=O)[C@H](CC(C)C)NC(=O)CNC(=O)[C@H](CCCNC(=N)N)NC(=O)[C@H](Cc2c[nH]c3ccccc23)NC(=O)[C@H](CCSC)NC(=O)[C@H](CO)NC(=O)[C@H](CCC(=O)O)NC(=O)[C@H](Cc2ccccc2)NC(=O)[C@H](CC(=O)O)NC(=O)[C@H]([C@@H](C)O)NC(=O)CNC(=O)[C@H](CCC(=O)O)NC(=O)[C@H]([C@@H](C)O)NC(=O)CNC(=O)[C@H](CC(=O)O)NC1=O  AlphaLISA signal (E3 ubiquitin-protein ligase Mdm2 (MDM2, Homo sapiens, UniProt Q00987); MDM2-ligand binding, inhibitor, AlphaLISA competition; 200 µM, together with: GST-tagged MDM2 ligand; lower = stronger inhibition): 822 a.u. and 759 a.u. and 851 a.u.
O=C(NCc1cc(Br)cc(Br)c1OC(=O)c1ccccc1[N+](=O)[O-])c1ccccc1Cl  agonist activity (lasR; reporter gene, agonist; Escherichia coli JLD271; 10 µM, pSC11 and pJN105L plasmids; relative to: OdDHL at same concentration): 105%
CN(C)[C@H]1C[C@@]23CC[C@@]4(O2)C(=CC[C@]2(C)[C@@H](c5ccc6ccncc6c5)CC[C@H]24)C=C3[C@@H](O)[C@@H]1O  inhibition (Calcium/calmodulin-dependent protein kinase type II subunit delta (CAMK2D, Homo sapiens, UniProt Q13557); ATP probe labelling, inhibitor, KiNativ profiling; 1 µM): -5.3%

Excerpt of the above:
Cc1ccc(NC(=O)CCc2cccc(NC3=CC(=O)N(C4CCC(=O)NC4=O)C3=O)c2)cc1Cl (stereo not shown)  log2 fold change (CRBN/Zinc finger protein Helios (Homo sapiens, UniProt Q96SW2+Q9UKS7); degrader, quantitative proteomics, measured: protein abundance; Jurkat; 1 µM, 4 h; relative to: DMSO): -2.43
CS(C)(=O)=Nc1ccc(-c2ccc(-c3nc4cc(O[C@@H]5CO[C@H]6[C@@H]5OC[C@H]6O)[nH]c4cc3F)cc2)cc1  inhibition (Aurora kinase B (AURKB, Homo sapiens, UniProt Q96GD4); enzyme activity, inhibitor; 10 µM): -2%
C[C@@H](O)[C@@H]1CN([C@@H](CC2CCCCC2)CN2CCC[C@H]2CN2CCNC[C@@H]2CO)CCN1CCCC1CCCC1  remaining binding (Oprm1; radioligand binding; rat brain membranes; 500 nM, pH 7.5, 25 °C, together with: 0.87 nM [3H]DAMGO): 109 ± 6.97%
